Assay results collected from several papers.
Lines come from different studies, so protocols differ.

Structure (SMILES)	organism	assay	system	setting	MIC
CC(C)C[C@@H]1NC(=O)[C@H](C)NC(=O)[C@H](NC(=O)[C@H](CO)NC(=O)[C@@H](CCCCN)NC(=O)[C@@H](CC(C)C)NC(=O)[C@H](C)N)[C@H](C(N)=O)OC(=O)[C@H](CC(C)C)NC1=O	Bacillus subtilis Bacillus subtilis		ATCC 6051	tested as TFA salt	2 to 4 µg/mL
CC[C@H](C)[C@H](NC(=O)[C@H](Cc1c[nH]c2ccccc12)NC(=O)[C@H](CCCNC(=N)N)NC(=O)[C@H](CCC(N)=O)NC(=O)[C@@H](NC(=O)[C@H](Cc1c[nH]c2ccccc12)NC(=O)[C@H](CCCNC(=N)N)NC(=O)[C@H](CCCNC(=N)N)NC(=O)[C@H](C)NC(=O)[C@H](C)NC(=O)[C@H](C)NC(=O)[C@@H](NC(=O)[C@H](CCCCN)NC(=O)[C@@H]1CCCN1C(=O)[C@H](CCCNC(=N)N)NC(=O)[C@H](Cc1c[nH]c2ccccc12)NC(=O)[C@H](CCCNC(=N)N)NC(=O)[C@H](CCCNC(=N)N)NC(=O)[C@@H](NC(=O)[C@H](Cc1c[nH]c2ccccc12)NC(=O)[C@H](CCCNC(=N)N)NC(=O)[C@H](CCC(N)=O)NC(=O)[C@@H](NC(=O)[C@H](Cc1c[nH]c2ccccc12)NC(=O)[C@H](CCCNC(=N)N)NC(=O)[C@@H](N)CCCNC(=N)N)C(C)C)[C@@H](C)CC)C(C)C)C(C)C)C(=O)N[C@@H](CCCNC(=N)N)C(=O)N[C@@H](CCCNC(=N)N)C(=O)N[C@@H](Cc1c[nH]c2ccccc12)C(=O)N[C@@H](CCCNC(=N)N)C(=O)N1CCC[C@H]1C(=O)N[C@@H](CCCCN)C(=O)N[C@H](C(N)=O)C(C)C	Malassezia furfur		DTO 383-D8	48 h, 30 °C	5 µM
COc1ccc(C2=[N+]([O-])c3ccccc3N3CCN=C23)cc1	Bacteroides ovatus		ATCC 84834		≤ 0.06 µg/mL
CC[C@H](C)[C@H](NC(=O)[C@@H]1CC(=O)N[C@@H](CO)C(=O)N[C@@H](CC(C)C)C(=O)NCC(=O)N[C@@H](CO)C(=O)N[C@@H](CO)C(=O)N2CCC[C@H]2C(=O)N[C@@H](Cc2ccc(O)cc2)C(=O)N[C@@H](CC(N)=O)C(=O)N1)C(=O)N[C@@H](CC(C)C)C(=O)NCC(=O)N[C@@H](Cc1ccc(O)cc1)C(=O)N1CCC[C@H]1C(=O)N[C@@H](C)C(=O)N[C@@H](CC(C)C)C(=O)N[C@H](C(=O)N[C@H](C(=O)N[C@H](C(=O)N[C@@H](Cc1ccc(O)cc1)C(=O)N1CCC[C@H]1C(=O)O)[C@@H](C)CC)C(C)C)[C@@H](C)CC	Pseudomonas putida				> 128 µg/mL
COc1ccc2ccc3c(c2c1)C=[N+]1C2CCCCC2[N+]2=Cc4cccc(F)c4[O][Au-]21[O]3.F[P-](F)(F)(F)(F)F (stereo not shown)	Klebsiella pneumoniae	bacterial growth, broth microdilution	carbapenem-resistant	24 h	10 µM
CN[C@@H]1[C@H](O)[C@H](NC)[C@H]2O[C@]3(O)[C@H](O[C@@H]2[C@H]1O)O[C@H](C)C[C@@]3(O)CNCc1ccc(Cl)cc1	Listeria monocytogenes				6.3 µg/mL
[O-][N+]1=C(c2ccsc2)C2=NCCCN2c2ccccc21	Eggerthella lenta	microbial growth	ATCC43055		0.25 µg/mL
CCCCCCSCC1OC(OC2C(N)CC(N)C(OC3OC(CN)C(O)CC3N)C2O)C(O)C(N)C1O (stereo not shown)	Listeria monocytogenes		ATCC 19115		75 µg/mL
CC[C@H](C)[C@H](NC(=O)[C@H](CO)NC(=O)[C@H](CO)NC(=O)[C@H](Cc1ccccc1)NC(=O)CN)C(=O)N[C@@H](Cc1ccccc1)C(=O)N[C@@H](CCCNC(=N)N)C(=O)NCC(=O)N[C@H](C(=O)N[C@@H](C)C(=O)N[C@@H](CCCCN)C(N)=O)C(C)C	Escherichia coli		ATCC 8739	10% FBS	> 128 µM
[O-][N+]1=C(c2ccccc2)C2=NCCN2c2ccccc21	Bacteroides ovatus		ATCC 84834		≤ 0.06 µg/mL

For quick reference, copied from above:
Structure (SMILES)	organism	assay	system	setting	MIC
[O-][N+]1=C(c2ccccc2)C2=NCCN2c2ccccc21	Bacteroides ovatus		ATCC 84834		≤ 0.06 µg/mL
